{"data": "Experimental data from different studies", "note": "Protocols differ between the studies behind these lines. ± gives the spread as reported."}
{"SMILES": "COc1ccc2c(c1)CN(C(=O)CCN1CCC(Cc3ccccc3)CC1)CC[S@@+]2[O-]", "test system": "female beagle dogs, chronic AV block", "setting": "intravenous, 3 mg/kg, 1 h", "measurement": "QTcF", "result": "309 ± 12 ms"}
{"SMILES": "Cc1ccc(F)c2cc(C(=O)N[C@@H]3CCC[C@H](N4CC[C@H](N(C)S(C)(=O)=O)C4)C3)[nH]c12", "test system": "CD1 mouse, plasma", "setting": "oral, 100 mg/kg, 7 h", "measurement": "plasma concentration", "result": "1120 ng/mL"}
{"SMILES": "COc1ccc2nc3cc(Cl)ccc3c(Nc3cc(CN4CCCC4)c(O)c(CN4CCCC4)c3)c2n1", "test system": "mouse, blood", "setting": "intraperitoneal, 14 mg/kg", "measurement": "basophil count", "result": "0.18 10⁹/L"}
{"SMILES": "COc1cc2c(Oc3ccc4[nH]c(C)cc4c3F)ccnc2cc1OCC1(N)CC1", "test system": "paediatric recurrent refractory sarcoma", "setting": "8 mg/kg", "measurement": "grade 1 or 2 Fever", "result": "20%"}
{"SMILES": "CNC(=O)N(N(CCCl)S(C)(=O)=O)S(C)(=O)=O", "test system": "1 mM potassium phosphate", "setting": "50 °C", "scale": "relative to: pH 7.6 over pH 7.2", "measurement": "half-life ratio", "result": "~2.4 fold"}
{"SMILES": "COc1ccc(-c2c(-c3ccc(C#N)c(F)c3)nc(N3CCC(N)CC3)n(C)c2=O)cc1F", "assay": "item: Nausea", "test system": "neuroendocrine neoplasm patients", "setting": "oral, 60 mg, any grade, dose expansion", "measurement": "treatment-related adverse event incidence", "result": "19%"}
{"SMILES": "CCCCCCCC(=O)N[C@@H](CCCCN)C(=O)N[C@@H](CCCCN)C(=O)N[C@@H](C)C(=O)N[C@@H](CC(C)C)C(=O)N[C@@H](CCCCN)C(=O)N[C@@H](CC(C)C)C(=O)N[C@@H](C)C(=O)N[C@@H](CCCCN)C(=O)N[C@@H](CCCCN)C(=O)N1CCC[C@H]1C(=O)N[C@@H](CC(C)C)C(=O)N[C@@H](CCCCN)C(=O)N[C@@H](CC(C)C)C(=O)N[C@@H](CC(C)C)C(=O)N[C@@H](CCCCN)C(N)=O", "test system": "female ICR CD-1 mice, whole blood", "setting": "intravenous bolus, 1 mg/kg", "measurement": "AUC(0-inf)", "result": "78 ± 14 ng·h/mL"}
{"SMILES": "CC(C)CC(=O)OC[C@H]1O[C@@](C#N)(c2ccc3c(N)ncnn23)[C@H](O)[C@@H]1O", "assay": "plasma protein binding", "test system": "dog plasma", "setting": "0.9 µM, time not given", "measurement": "recovery", "result": "95.4%"}
{"SMILES": "COc1ccc(N=Nc2ccc3[nH]cc(CCN(C)C)c3c2)cc1", "assay": "light irradiation", "test system": "solution", "setting": "added: light 385 nm", "measurement": "cis isomer at photostationary state", "result": "90%"}
{"SMILES": "CCN1[C@@H](C(=O)NC23CCC(C(=O)O)(CC2)CC3)[C@H](c2cccc(Cl)c2F)[C@]2(C(=O)Nc3cc(Cl)ccc32)C12CCCCC2", "test system": "patients with advanced solid tumours", "setting": "oral, dose not given, all doses", "measurement": "Hypercholesterolemia incidence", "result": "4.8%"}
{"SMILES": "CCN1CCN(Cc2ccc(Nc3ncc(F)c(-c4cc(F)c5nc6n(c5c4)[C@H](C)CCC6)n3)nc2)CC1", "test system": "advanced solid tumour patients", "setting": "dose not given, Phase Ia monotherapy", "measurement": "Hyperglycemia incidence, grade ≥3", "result": "8.3%"}
{"SMILES": "COc1ncccc1-c1cnn2ccc(N3CCN(C(=O)OC(C)C)CC3)nc12", "test system": "mouse nerve ligation model, brain", "setting": "oral, 10 mg/kg, 120 min after last dose, repeat dosing day 2", "measurement": "drug concentration", "result": "7 µM"}
{"SMILES": "CO[C@H]1C[C@@H]2CC[C@@H](C)[C@@](O)(O2)C(=O)C(=O)N2CCCC[C@H]2C(=O)O[C@H]([C@H](C)C[C@@H]2CC[C@@H](OC(=O)NCCOCCOCCOCCOCCOCCOCCOCCOCCC(=O)N3CCc4cc(Cn5nc(-c6ccc7oc(N)nc7c6)c6c(N)ncnc65)ccc4C3)[C@H](OC)C2)C[C@@H](O)[C@H](C)/C=C(\\C)[C@@H](O)[C@@H](OC)C(=O)[C@H](C)C[C@H](C)/C=C/C=C/C=C/1C", "test system": "patients with advanced solid tumours", "setting": "intravenous, 8 mg weekly, grade 3 or higher", "measurement": "diarrhoea incidence", "result": "0%"}
{"SMILES": "NCCCC[C@@H]1NC(=O)[C@@H](Cc2c[nH]c3ccccc23)NC(=O)[C@H](c2ccccc2)NC(=O)[C@@H]2C[C@@H](OC(=O)NCCN)CN2C(=O)[C@H](Cc2ccccc2)NC(=O)[C@H](Cc2ccc(OCc3ccccc3)cc2)NC1=O", "test system": "healthy human volunteers", "setting": "1950 µg twice daily", "measurement": "subjects with feeling hot", "result": "6%"}
{"note": "Repeated from above:"}
{"SMILES": "COc1ccc(-c2c(-c3ccc(C#N)c(F)c3)nc(N3CCC(N)CC3)n(C)c2=O)cc1F", "assay": "item: Nausea", "test system": "neuroendocrine neoplasm patients", "setting": "oral, 60 mg, any grade, dose expansion", "measurement": "treatment-related adverse event incidence", "result": "19%"}
{"SMILES": "Cc1ccc(F)c2cc(C(=O)N[C@@H]3CCC[C@H](N4CC[C@H](N(C)S(C)(=O)=O)C4)C3)[nH]c12", "test system": "CD1 mouse, plasma", "setting": "oral, 100 mg/kg, 7 h", "measurement": "plasma concentration", "result": "1120 ng/mL"}
